Experimental data from different studies.
Lines come from different studies, so protocols differ. ± gives the spread as reported.

SMILES | tested on | assay | system | setting | how to read | quantity | result
CN[C@@](C)(C[18F])C(=O)O | SK-OV-3 tumour model | – | host not given, bone | 2 h, tumour-bearing | – | tracer uptake | 2 %ID/g
CNC(C)Cc1ccc2c(c1)OCO2 (racemic) | – | Drug Effects Questionnaire, refers to: Want More | human | oral, 0.75 mg/kg, mean over session, unit not given | reference: pre-dose baseline | subjective drug effect rating | 22.5
C[C@H]1CNCCc2ccc(Cl)cc21 | – | – | Sprague-Dawley rat, male, plasma | subcutaneous, 1 mg/kg, 360 min | – | plasma concentration | 1.98 ± 0.16 ng/mL
Nc1nc(N)nc(N)n1 | – | LC-MS/MS | rat CD IGS, female, pregnant and non-pregnant, serum | oral, 1000 mg/kg/day, 10 days, range | – | concentration | 32100 to 767000 ng/mL
Cc1c(P(=S)(c2ccccc2)c2ccccc2)n2ccccc2[n+]1C/C=C/c1ccccc1 | – | – | mouse, brain | intraperitoneal, 10 mg/kg, 24 h | – | concentration | 24 ng/g
c1cc2ccc3cccc4ccc(c1)c2c34 | – | – | male Wistar rats, tongue | oral, 4 mg/kg, 24 h | – | concentration | 36.7 ± 5 ng/g
CC(C)C[C@H](NC(=O)[C@H](CCC(=O)O)NC(=O)[C@H](CCC(=O)O)NC(=O)[C@H](CC(=O)O)NC(=O)[C@H](CCC(=O)O)NC(=O)[C@H](CCC(=O)O)NC(=O)[C@H](CCC(=O)O)NC(=O)[C@@H](N)CC(=O)O)C(=O)O | – | – | rat, CSF | intravenous, 11.0 mg/kg, 150 min | – | concentration | 4.25 ng/mL
O=c1[nH]c(=O)[nH]c(=O)[nH]1 | – | LC-MS/MS | rat CD IGS, female, non-pregnant, serum | oral, 1000 mg/kg/day, 10 days, range | – | concentration | 2300 to 173000 ng/mL
COc1ccc(C(=O)NCc2cc(C(C)C)no2)cc1OC1CCN(C)CC1 | – | – | male Sprague-Dawley rat, brain | intravenous, 1 mg/kg, 15 min | – | concentration | 23.4 ng/g
C[C@H]1N=C(c2ccccc2F)c2cc(Br)ccc2-n2cnc(C(=O)O)c21 | – | – | Swiss Webster mice, lung | oral, 25 mg/kg, 60 min, propylene glycol 40%, HPMC 60% | – | concentration | 455 nM
[123I]c1cncc(OC[C@@H]2CCN2)c1 | – | SPECT | human, low plasma nicotine, Putamen | intravenous | reference: plasma | tissue/plasma ratio | 23.8
O=C(NCCS)c1cccc(C(=O)NCCS)c1 | – | – | male Sprague-Dawley rat, plasma | intravenous, 1 mg/kg, 30 min | – | concentration | 230 ng/mL
